Assay results collected from several papers.
Numbered parts are unrelated; each lists some results of a single study.

Sample 1 — technique: RNA Bind-n-Seq; form: RNA; sample: in vitro; tested at: 200 nM; notes: whole 134-nt RNA, ends assumed; with: 150 mM KCl; reference: input library; direction: higher = stronger binding
Target: Fragile X messenger ribonucleoprotein 1, C-terminal low-complexity region (Fmr1, Mus musculus, UniProt P35922)
`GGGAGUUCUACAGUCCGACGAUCGGUAAACGCCCUGCAGAAGAUAUGGAAGAGGAACAAGCAUUUAAAAGAUCUAGAAACACUGAUGAGAUGGUUGAAUUACGCAUUCUGCUUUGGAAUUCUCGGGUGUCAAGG` has a log2 enrichment of -0.249.
For `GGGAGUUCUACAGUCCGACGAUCCUCAAGUCCUGUGCUACACAUCGUAUGUACCGAAUCGGGUGGGAGGGUUUGGGAAAGUAUUAUGUUACGCCGUUCGGAUCUGCACUUCCAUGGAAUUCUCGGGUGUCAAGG`, the log2 enrichment was 1.22.
`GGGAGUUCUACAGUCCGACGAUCUAACUUUAGAGGAGGAUCUGAUGGAUAUGGCGGUGGACGUGGAUUUGGGGAUGGCUAUAAUGGGUAUGGAGGAGGACCUGGAGGUGGCAAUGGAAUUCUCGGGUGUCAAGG` has a log2 enrichment of 0.42.
For `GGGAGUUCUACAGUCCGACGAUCUCCUGUGCUACACAUCGUAUGUACCGAAUCGGGGAAAAAGGGGAGGGGAAAAAAAGGGGAAAGUAUUAUGUUACGCCGUUCGGAUCUGCAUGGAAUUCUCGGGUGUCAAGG`, the log2 enrichment was 0.291.
For `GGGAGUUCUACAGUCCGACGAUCAGUCCUGUGCUACACAUCGUAUGUACCGAAUCGGGAAAAAGGGUUUUUUUGGGUGGGAAAGUAUUAUGUUACGCCGUUCGGAUCUGCACUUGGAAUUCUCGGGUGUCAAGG`, the log2 enrichment was 0.666.
The log2 enrichment of `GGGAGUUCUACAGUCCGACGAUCAAGUCCUGUGCUACACAUCGUAUGUACCGAAUCGGGUGGGUUUUUGGGAAAAAGGGAAAGUAUUAUGUUACGCCGUUCGGAUCUGCACUUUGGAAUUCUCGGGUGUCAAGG` is reported as 0.607.
`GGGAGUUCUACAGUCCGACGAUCCACAGACAACACGCACCCACACAGACACAGAGGGAAAAGGUUGGGAUGGGGACAGGGUGCACAGCAGGGCGGGGUAGGACCCCAGCCCCUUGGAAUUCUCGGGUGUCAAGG` has a log2 enrichment of 1.48.
With `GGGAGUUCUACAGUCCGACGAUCACCAUGCAGGUGGGCAUCUUUGGGAAGUGGGGCAAGGGGGGGAUAGGGAGGGGGGUAACACUUUGUGAACAGGUGGUCCCAGGUCGUUUCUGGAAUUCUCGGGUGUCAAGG` the log2 enrichment was 0.744.
`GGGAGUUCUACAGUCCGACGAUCUAAUUAUGUUUUAUUUUCUUUAAUUGCAGGACUUCAUAGACCUCACGUUGUCGAAGACUCAACGAAAGACUCCAACCGUUAUUCAUAAACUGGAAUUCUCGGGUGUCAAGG` gave a log2 enrichment of 0.235.

Sample 2 — technique: universal PBM; form: double-stranded DNA, one strand shown; sample: in vitro; tested at: 600 nM; direction: higher = stronger binding
Target: Sal-like protein 4, full length isoform A (SALL4, Homo sapiens, UniProt Q9UJQ4, residues 1-1053)
Chain of UniProt Q9UJQ4 (whole entry, looked up): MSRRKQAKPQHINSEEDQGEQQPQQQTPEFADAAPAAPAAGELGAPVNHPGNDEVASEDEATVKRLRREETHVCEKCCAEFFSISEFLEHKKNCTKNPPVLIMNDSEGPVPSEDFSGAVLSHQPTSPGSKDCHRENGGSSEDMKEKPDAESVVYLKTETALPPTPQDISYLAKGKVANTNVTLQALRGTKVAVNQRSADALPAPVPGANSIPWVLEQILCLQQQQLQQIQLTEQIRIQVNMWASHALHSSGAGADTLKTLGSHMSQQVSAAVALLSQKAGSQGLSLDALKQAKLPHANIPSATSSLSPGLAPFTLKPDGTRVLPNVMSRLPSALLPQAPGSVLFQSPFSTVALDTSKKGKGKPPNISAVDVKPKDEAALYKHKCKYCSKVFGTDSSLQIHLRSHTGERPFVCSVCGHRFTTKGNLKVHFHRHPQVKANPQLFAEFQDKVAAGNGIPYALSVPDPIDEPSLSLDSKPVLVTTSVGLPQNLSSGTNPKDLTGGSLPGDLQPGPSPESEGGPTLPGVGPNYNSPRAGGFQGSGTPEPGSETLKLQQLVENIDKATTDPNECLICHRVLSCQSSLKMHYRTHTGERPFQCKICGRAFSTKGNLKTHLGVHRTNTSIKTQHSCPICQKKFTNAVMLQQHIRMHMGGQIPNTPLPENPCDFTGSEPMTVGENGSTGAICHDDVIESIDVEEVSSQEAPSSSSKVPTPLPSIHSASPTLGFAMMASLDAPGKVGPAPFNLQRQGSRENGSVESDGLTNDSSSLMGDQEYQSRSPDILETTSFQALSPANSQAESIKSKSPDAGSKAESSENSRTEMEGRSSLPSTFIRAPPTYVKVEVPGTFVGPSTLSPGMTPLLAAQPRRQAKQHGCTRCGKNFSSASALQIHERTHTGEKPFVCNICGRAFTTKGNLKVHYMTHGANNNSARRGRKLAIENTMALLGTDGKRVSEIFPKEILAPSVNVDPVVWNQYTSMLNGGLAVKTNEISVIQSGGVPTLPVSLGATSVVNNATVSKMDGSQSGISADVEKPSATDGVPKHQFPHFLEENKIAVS
Notes: 8-mer, flanks averaged, mean of replicates
`GCTAACCA` gave an E-score of -0.194.
With `CCCCGGAA` the E-score was -0.306.
With `AATACTCA` the E-score was 0.263.
For `CCTAGCCC`, the E-score was -0.3.
For `AATAGACA`, the E-score was 0.0647.
`AATACTGA` has an E-score of 0.188.
With `TCAACCGA` the E-score was 0.0742.
`GTTGGCGA` has an E-score of -0.0978.
With `CCATTCGG` the E-score was -0.0971.
With `CAAATGAC` the E-score was 0.0448.
For `CGACTTTC`, the E-score was -0.0451.
The E-score of `AAGTAAGA` is reported as 0.0876.
`CAAATAGA` has an E-score of 0.175.
`CCGGAACG` gave an E-score of -0.25.
The E-score of `CACCGTAG` is reported as -0.113.
With `AGGGAAGA` the E-score was -0.0783.
For `AAGGACTG`, the E-score was -0.169.

Sample 3 — technique: RNA Bind-n-Seq; form: RNA; sample: in vitro; tested at: 365 nM; reference: no-protein control; direction: higher = stronger binding
Target: RNA binding protein fox-1 homolog 2, RRM domain, GST-SBP tag (RBFOX2, Homo sapiens, UniProt O43251-10, residues 100-194)
Notes: natural RNA segment, single round, ends assumed
Under “RBNS enrichment (R)”, `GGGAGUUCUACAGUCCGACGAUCACCUGAAUCUGUGCAUUUUGUGCCUUAUUCAUGAGAAUGAUAGAAGUACUAAAAUCUGUCAAGUGUUUUCAGUAUAGCACAUUAUUUACUGAGUGCCAGUUGUAAAUGUUUGGAAUUCUCGGGUGCCAA` is recorded as 0.537.
`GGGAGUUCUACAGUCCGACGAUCAAGAAGAGGGAGAUACUAGAGGAACUGAGGCUCCACCCAUUCAUUCAGUUGCUCUAAGCACCAGAGGACUUGUUUCAGAAAAGGGGAGUGGGAACGCCCUCGACUUUGCCUGGAAUUCUCGGGUGCCAA`: “RBNS enrichment (R)” 1.63.
`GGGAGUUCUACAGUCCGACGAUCCUCUCCCCUUGGUCACCUCUGGAACAAACAGGUUCCUUCCCUGGGGUCCAUAGGGAGGGACCUCAUGGGGCUGUCACAUCCUAGCAACCUUCUUAGCCUCCUUCCUUCCUUGGAAUUCUCGGGUGCCAA` — result for “RBNS enrichment (R)”: 0.582.
Under “RBNS enrichment (R)”, `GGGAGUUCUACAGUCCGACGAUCACAUGACAGGACCUAUCGUUGAGGUUUCUAAGACUUACUAUGGGCUGUAAACCUGUUUUUUAAAACUAUUUUAGAAACCUGAGACUUGCCGUCUGGCAUUUUAGUUUAAUUGGAAUUCUCGGGUGCCAA` is recorded as 0.672.
For `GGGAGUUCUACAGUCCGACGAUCUUGGUUUUGUUGGAGAGUGUCAGACUGAUCUGGAAGUGAAACACAGUUUAUGUACAGGGAAAAGGAUUUUAUUAUCCUUAGGAAUGUCAUCCAAGACGUAGAGCUUGAAUUGGAAUUCUCGGGUGCCAA`, “RBNS enrichment (R)” read 0.861.
Under “RBNS enrichment (R)”, `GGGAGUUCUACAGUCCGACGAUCUGACCUUCAGAUAUUUUCUACUUAAAAAAUUGUGGAUGAACGCCCUAUCUCCCUCCCACAGUGGAGUCCCCAUUACCUUGUCUAAAACAAUUUUUUAAUGUGUUCUGUGGUGGAAUUCUCGGGUGCCAA` is recorded as 0.522.
Under “RBNS enrichment (R)”, `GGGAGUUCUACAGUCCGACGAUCGCAUCUUCUAGAUGGCAGAGGGGUGAAUGGCAGGGCCAGGAACCAGGCUGCCCGGGUUCCCAUUCUGCUUCUGCCACUUCCAGCUGUGUGGCUUUAGGUGAGCCUUCACCUGGAAUUCUCGGGUGCCAA` is recorded as 0.743.
`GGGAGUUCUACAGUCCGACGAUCCAGCUACUCGGGAGGCUGAGGCAGGAAGAAUCACUUGAACCCAGGAGGCGGAGGUUGCAGUGUGCCAAGAUCAUACCACUGCACUCCAGCCCUGGUGACAGAGGAGACCCUGGAAUUCUCGGGUGCCAA` — result for “RBNS enrichment (R)”: 0.589.

Sample 4 — technique: protein-binding microarray; form: double-stranded DNA, one strand shown; sample: in vitro; tested at: 250 nM; notes: 60-bp whole probe; with: salmon DNA 0.4 mg/ml; reference: random background probes; direction: higher = stronger binding; shared flanks, not repeated: GCCTAGCAC … GTCTTGATTCGCTTGACGCTGCTG
Target: Interferon regulatory factor 5, full length, phosphomimetic (IRF5, Homo sapiens, UniProt Q13568-2, residues 1-514, K96S/S451D/S453D/S456D/S462D)
`TCACCTGTCCATTCCTTACTGTGCTAG` gave a log fluorescence of 0.539 z-score.
The log fluorescence of `TTAGATATCGGGTATCCATTAGTGCTA` is reported as 2.39 z-score.
The log fluorescence of `TTTGCTTTCCTGATGGTCTTGTGCTAG` is reported as 0.808 z-score.
The log fluorescence of `TCACTCTCTCTATTCTGTGGGTGCTAG` is reported as 0.573 z-score.
With `TAAGGTATCCTTTTCCTTTAGTGCTAG` the log fluorescence was 0.877 z-score.
The log fluorescence of `TTAGATCTCAGATTCGATTAGTGCTAG` is reported as 0.884 z-score.
The log fluorescence of `TTAGGACTGGGGTATCGGTTAGTGCTA` is reported as 2.24 z-score.
`GCCGGTCTCCTTTTCCTGACGTGCTAG` has a log fluorescence of 0.0607 z-score.
For `GACGGTTCCGGTTTCGGGAGGTGCTAG`, the log fluorescence was 4.74 z-score.
The log fluorescence of `GACGGACTGGGAACTGGGGACGTGCTA` is reported as -0.678 z-score.
The log fluorescence of `ATCTTAATAAGGTTTCCAATCGTGCTA` is reported as 0.215 z-score.
`GACGGACTGGGGACTGCGGACGTGCTA` has a log fluorescence of -0.721 z-score.
The log fluorescence of `GACGATTGCAGACTGGAGACGTGCTAG` is reported as -0.23 z-score.
For `TTAGGTATCAACTTTCGGTTAGTGCTA`, the log fluorescence was 9.84 z-score.
With `TTAGGTATCCTTTTCCTTCAGTGCTAG` the log fluorescence was 0.662 z-score.
For `GACGGACTTGGTTTCGGGACGTGCTAG`, the log fluorescence was 4.43 z-score.
`GACGATTCCGGGACTGGAGACGTGCTA` gave a log fluorescence of -0.271 z-score.
`TTAGGTCTAGGTTTCGGTTAGTGCTAG` has a log fluorescence of 8.07 z-score.
`TTGTGTCAACTTTCTCTGCTCGTGCTA` has a log fluorescence of 1.22 z-score.

Sample 5 — technique: protein binding microarray; form: double-stranded DNA, one strand shown; sample: in vitro; tested at: not given; reference: not given; direction: higher = stronger binding
Target: Histone acetyltransferase KAT6A, winged helix 2, GST fusion (KAT6A, Homo sapiens, UniProt Q92794, residues 85-181)
Notes: 8-mer, flanks averaged, mean of 2 arrays, mostly near background
Target sequence (chain): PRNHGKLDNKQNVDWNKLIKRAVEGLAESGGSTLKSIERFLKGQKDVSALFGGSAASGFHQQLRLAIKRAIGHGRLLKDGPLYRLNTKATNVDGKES
The E-score of `CTTGAAAA` is reported as 0.142.
`AACTAAGA` gave an E-score of 0.01.
With `AGTAACCA` the E-score was -0.101.
The E-score of `GTGCTAAC` is reported as 0.0122.
`CAACGTTA` gave an E-score of -0.171.
With `AAGCTCAG` the E-score was -0.0301.
`GGCGTAGA` has an E-score of -0.122.
`GGAACAGA` gave an E-score of 0.00229.
The E-score of `CGTATAAC` is reported as -0.0244.
For `GCATGCAA`, the E-score was 0.0129.
With `CCGGTAGG` the E-score was 0.105.
With `ACCATTAA` the E-score was 0.0494.
`ATCCGTTA` gave an E-score of 0.0425.
The E-score of `ACGTAGCG` is reported as -0.217.
For `ATGCGCCA`, the E-score was 0.00704.
With `AATCGCGG` the E-score was 0.0251.
`GGTATGCA` gave an E-score of 0.00668.
`CATAAGCC` has an E-score of -0.0847.
The E-score of `ATCTAGCA` is reported as -0.0456.
With `AACAGCCC` the E-score was -0.0829.
With `CATTAGTC` the E-score was -0.152.
For `CTTGAGCA`, the E-score was 0.0479.

Repeated from above (sample 3):
Under “RBNS enrichment (R)”, `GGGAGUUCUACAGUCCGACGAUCACAUGACAGGACCUAUCGUUGAGGUUUCUAAGACUUACUAUGGGCUGUAAACCUGUUUUUUAAAACUAUUUUAGAAACCUGAGACUUGCCGUCUGGCAUUUUAGUUUAAUUGGAAUUCUCGGGUGCCAA` is recorded as 0.672.
Under “RBNS enrichment (R)”, `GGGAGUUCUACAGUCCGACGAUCACCUGAAUCUGUGCAUUUUGUGCCUUAUUCAUGAGAAUGAUAGAAGUACUAAAAUCUGUCAAGUGUUUUCAGUAUAGCACAUUAUUUACUGAGUGCCAGUUGUAAAUGUUUGGAAUUCUCGGGUGCCAA` is recorded as 0.537.
`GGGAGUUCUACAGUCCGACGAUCCAGCUACUCGGGAGGCUGAGGCAGGAAGAAUCACUUGAACCCAGGAGGCGGAGGUUGCAGUGUGCCAAGAUCAUACCACUGCACUCCAGCCCUGGUGACAGAGGAGACCCUGGAAUUCUCGGGUGCCAA` — result for “RBNS enrichment (R)”: 0.589.
Under “RBNS enrichment (R)”, `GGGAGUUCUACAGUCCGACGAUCGCAUCUUCUAGAUGGCAGAGGGGUGAAUGGCAGGGCCAGGAACCAGGCUGCCCGGGUUCCCAUUCUGCUUCUGCCACUUCCAGCUGUGUGGCUUUAGGUGAGCCUUCACCUGGAAUUCUCGGGUGCCAA` is recorded as 0.743.
Under “RBNS enrichment (R)”, `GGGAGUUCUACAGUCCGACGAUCUGACCUUCAGAUAUUUUCUACUUAAAAAAUUGUGGAUGAACGCCCUAUCUCCCUCCCACAGUGGAGUCCCCAUUACCUUGUCUAAAACAAUUUUUUAAUGUGUUCUGUGGUGGAAUUCUCGGGUGCCAA` is recorded as 0.522.
